Assay results pooled from the literature.
“And” joins repeats or separate records; there may be more than shown. Numbers after ± are the reported error.
USP20 ZnF-UBD domain: Ubiquitin carboxyl-terminal hydrolase 20, ZnF-UBD domain (USP20, Homo sapiens, UniProt Q9Y2K6)
Sequence of UniProt Q9Y2K6 (whole entry, looked up): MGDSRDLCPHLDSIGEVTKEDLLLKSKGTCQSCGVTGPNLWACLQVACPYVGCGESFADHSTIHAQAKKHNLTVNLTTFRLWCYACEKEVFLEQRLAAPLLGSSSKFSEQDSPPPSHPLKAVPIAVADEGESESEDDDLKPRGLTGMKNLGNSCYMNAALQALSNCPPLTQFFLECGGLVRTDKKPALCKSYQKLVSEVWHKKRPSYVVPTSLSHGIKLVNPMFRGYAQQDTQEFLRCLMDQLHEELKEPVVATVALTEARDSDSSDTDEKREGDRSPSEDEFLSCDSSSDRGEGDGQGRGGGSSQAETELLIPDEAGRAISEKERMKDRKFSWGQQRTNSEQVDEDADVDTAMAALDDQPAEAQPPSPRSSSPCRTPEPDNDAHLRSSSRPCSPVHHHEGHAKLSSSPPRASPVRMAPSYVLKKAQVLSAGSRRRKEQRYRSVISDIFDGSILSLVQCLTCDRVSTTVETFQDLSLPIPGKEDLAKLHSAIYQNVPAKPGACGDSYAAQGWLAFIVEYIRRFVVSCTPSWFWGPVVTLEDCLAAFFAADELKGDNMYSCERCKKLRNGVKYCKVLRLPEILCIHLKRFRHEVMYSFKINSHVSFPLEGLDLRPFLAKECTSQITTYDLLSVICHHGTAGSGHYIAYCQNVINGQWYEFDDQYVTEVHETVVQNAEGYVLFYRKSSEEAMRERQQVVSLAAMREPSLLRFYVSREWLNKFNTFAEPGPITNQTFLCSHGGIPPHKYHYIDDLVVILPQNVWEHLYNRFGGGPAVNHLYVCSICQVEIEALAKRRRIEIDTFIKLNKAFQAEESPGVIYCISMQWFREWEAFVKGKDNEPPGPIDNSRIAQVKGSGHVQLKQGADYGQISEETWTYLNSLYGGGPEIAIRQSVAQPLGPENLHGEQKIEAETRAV
Sequence of UniProt P51617 (whole entry, looked up): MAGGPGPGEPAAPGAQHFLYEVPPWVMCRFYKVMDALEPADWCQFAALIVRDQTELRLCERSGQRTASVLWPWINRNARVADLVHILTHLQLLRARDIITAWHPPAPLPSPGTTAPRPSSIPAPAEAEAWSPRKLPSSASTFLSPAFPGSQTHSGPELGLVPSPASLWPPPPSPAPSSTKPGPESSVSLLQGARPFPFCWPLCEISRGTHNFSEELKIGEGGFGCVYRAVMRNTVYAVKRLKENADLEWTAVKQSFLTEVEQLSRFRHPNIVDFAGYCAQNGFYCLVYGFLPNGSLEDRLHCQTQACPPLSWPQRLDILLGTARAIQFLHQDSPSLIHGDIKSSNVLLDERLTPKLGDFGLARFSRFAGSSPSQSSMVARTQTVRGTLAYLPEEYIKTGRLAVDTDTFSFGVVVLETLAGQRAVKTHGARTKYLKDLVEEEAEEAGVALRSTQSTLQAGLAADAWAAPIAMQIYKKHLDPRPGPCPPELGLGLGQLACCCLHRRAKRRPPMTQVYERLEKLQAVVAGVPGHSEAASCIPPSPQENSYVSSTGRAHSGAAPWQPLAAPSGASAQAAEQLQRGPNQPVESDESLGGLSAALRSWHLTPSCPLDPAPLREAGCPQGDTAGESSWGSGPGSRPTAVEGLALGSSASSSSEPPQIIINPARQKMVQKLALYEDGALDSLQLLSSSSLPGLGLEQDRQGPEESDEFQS

SMILES | tested on | assay | test system | setting | scale | measurement | value
Cc1ccc([C@@H]2O[C@H](CO)[C@@H](O)[C@H](O)[C@H]2O)cc1Cc1ccc(-c2ccc(F)cc2)s1 | – | – | Japanese type 2 diabetes patients | 400 mg, day 17 | baseline: day 1 | change in fasting serum insulin | -1.7 µU/mL
CN[C@@H]1COc2c(S(=O)(=O)NC(=O)Nc3c4c(cc5c3CCC5)CCC4)cnn2C1 | – | item: IL-1β | human participants, whole blood ex vivo | 900 mg twice daily, multiple doses, 12 h, with: LPS/ATP | baseline: baseline | inhibition | 99.5%
Cn1cc(Nc2nccc(-c3ccc4c(c3)CN(C3COC3)CC[C@H]4NC(=O)c3cn(C(C)(C)C)nn3)n2)cn1 | – | item: S phase Entry, Estrogen-mediated | splenic B cells, mouse | in vivo, 30 mg/kg, IgD-activated B cells | baseline: vehicle, positive = activation | pathway activation z-score | 0
N[C@@H](COP(=O)(O)O)C(=O)O | – | binding, equilibrium dialysis LC-MS | – | 5 µM, thermostabilized A2AR-BRIL construct | baseline: no-protein control, direction not given | z-scored log2 fold change | -0.00304
OC(CCN1CCCCC1)(c1ccccc1)C1CC2C=CC1C2 (stereo not drawn) | – | resting-state EEG | healthy elderly humans | oral, 4 mg, eyes open, LS mean | – | power, Delta EEG, Pz-O1 | 8.3 µV²
CCOc1c([C@H](C)n2nc(C)c3c(N)ncnc32)cc(Cl)c(F)c1[C@@H]1CNC(=O)C1 | – | Olink proximity extension proteomics, item: SERPINA9 | human FL or MZL patients, plasma | dose not given, week 8 | baseline: baseline | plasma protein level change | -74%
COCCOC(=O)C1=C(C)NC(C)=C(C(=O)OC(C)C)C1c1cccc([N+](=O)[O-])c1 (stereo not drawn) | – | whole-cell current clamp | DRG neurons, naive rat | dose not given, 4 h | – | action potential threshold | -34.9 mV and -26.9 mV and -25.5 mV and -31.4 mV and -35.3 mV
COc1ccc(-c2cncc(N[C@@H](C)c3cccc(NC(=O)c4cncc(C)c4)c3)n2)cc1OC | – | item: rno-miR-143-3p | rat SU5416/hypoxia model, lung | dose not given | baseline: SU5416/hypoxia vehicle | fold change | 0.553
CC(C)c1ncc(C(=O)N2CCOC3(CCN(Cc4ccc(F)c(CCNC[C@H](O)c5ccc(O)c6[nH]c(=O)sc56)c4)CC3)C2)s1 | – | – | COPD patients | 18 µg single, 24 h, day 1 | baseline: baseline, placebo-corrected | trough FEV1 change | 0 mL
CCC(C)C(=O)NCC(=O)O (stereo not drawn) | – | binding, equilibrium dialysis LC-MS | – | 5 µM, thermostabilized A2AR-BRIL construct | baseline: no-protein control, direction not given | z-scored log2 fold change | -1.03
C[C@H]1C[C@H]2CSC(N)=N[C@@]2(c2nc(NC(=O)c3ccc(OC(F)F)cn3)cs2)CO1 | – | item: total Aβ | healthy adults, plasma | 3 mg single dose, 24 h post-dose | baseline: placebo | percent change from baseline | -27.7%
CSc1ccc(C(=O)/C=C/c2cc(C)c(OC(C)(C)C(=O)O)c(C)c2)cc1 | – | item: TC, TG, NEFA | C57BL/6 mice, WD/CCl4 MASH model, liver | oral, 30 mg/kg daily, 4 weeks | baseline: model group | hepatic lipid accumulation | decreased
O=C(O)c1ccc(O)cc1 | – | ABTS radical | – | 300 µg/mL | – | radical scavenging | 29.6 ± 1.28%
OCC(O)CO | – | ELISA | female Gpd2 knockout mice, serum | oral in drinking water, 5 % w/v, 2 days | – | plasma FGF21 level | 338 pg/mL and 251 pg/mL and 265 pg/mL and 1700 pg/mL
C[C@@H](O)CCOC(=O)C[C@@H](C)O | – | item: insulin | human, plasma | concentration not given, 60 min | baseline: baseline | log2 fold change | 1.09 pg/mL
Cc1n[nH]c2ccc(-c3cc(OC[C@@H](N)Cc4ccccc4)cnc3-c3ccoc3)cc12 | – | kinase binding, competitor, MIB/MS competition, item: GIN4 | Candida albicans cell lysate | 100 nM | baseline: DMSO | log2 fold change | -0.016
COc1cc(O)c(CC=C(C)C)c(O)c1C(=O)/C=C/c1ccc(O)cc1 | – | – | male Tac:SW mice, conventional and germ-free | in high-fat diet, dose not given | baseline: high-fat diet alone | hepatic and muscle triglycerides | no effect
O=C1Nc2cc3[nH]nc(-c4ccncc4)c3cc2CN1Cc1ccccc1 | – | RECIST v1.1 | human, relapsed or refractory advanced solid tumours | intravenous, 11.3 mg/kg | – | complete response, best response | 0%
CN(C(=O)n1cnc(-c2ccc[n+]([O-])c2)c1)C1CCCCC1 | – | item: LEA | human, plasma | 2.5 mg single dose | – | AUC(0-t) | 275 ng·h/mL
Nc1nc2nc[nH]c2c(=O)[nH]1 | – | binding, equilibrium dialysis LC-MS | – | 5 µM, thermostabilized A2AR-BRIL construct | baseline: no-protein control, direction not given | z-scored log2 fold change | 0.46
N#Cc1ccn2c(-c3ccncc3)c(-c3ccc(F)cc3)nc2c1 | – | kinase binding, competitor, MIB/MS competition, item: HST7 | Candida albicans cell lysate | 1 µM | baseline: DMSO | log2 fold change | -0.143
O=C(O)CNC(=O)Cc1ccccc1 | – | – | ventricular cardiomyocytes, C57BL/6 mouse | dose not given, 0.096 s | – | sarcomere length | 1.72 µm
N#Cc1c2n(c3c(=O)n(CC(=O)O)cnc13)CCCC2 | USP20 ZnF-UBD domain | – | – | – | – | Kd | 552 µM
N=C(N)NCCC[C@@H](NC(=O)CCOCCOCCNC(=O)[C@H](CCCCNC(=O)CC[C@H](NC(=O)c1ccc(NCc2cnc3nc(N)[nH]c(=O)c3n2)cc1)C(=O)O)NC(=O)CO/N=C/[C@H](F)[C@@H](O)[C@H](O)[C@H](O)CO)C(=O)NCC(=O)N[C@H](CC(=O)O)C(N)=O [fluorine-18 labelled] | – | – | female nude mouse, liver | intravenous, 1 µg, 2.5 h | – | tissue uptake | 0.89 ± 0.16 %ID/g
C=CCn1c(=O)c2cnc(Nc3ccc(N4CCN(C)CC4)cc3)nc2n1-c1ccc2c(n1)[C@@](O)(CC)CC2 | – | – | OVCAR-3 xenograft, NOD/SCID mouse | 80 mg/kg once daily, :2 | – | tumour growth inhibition | 87.8%
Cc1oncc1C(=O)Nc1ccc(C(F)(F)F)cc1 | – | item: dihydroorotate | female CD-1 mice, pooled urine | oral, 10 mg/kg daily, 0-8 h after dose 10, 10-day dosing | – | DHO concentration | 378 ± 17.8 µM
O=C(O)CCc1nccs1 | USP20 ZnF-UBD domain | – | – | – | – | Kd | 439 µM

SMILES | tested on | assay | test system | setting | scale | measurement | value
N#Cc1ccc2c(-c3ccncc3)c(-c3ccc(F)cc3)nn2c1 | – | kinase binding, competitor, MIB/MS competition, item: KIN2 | Candida albicans cell lysate | 10 µM | baseline: DMSO | log2 fold change | -0.304
COc1cc2cc(-c3ccc(CC(=O)Nc4cc(C(C)(C)C(F)(F)F)no4)cn3)cnc2cc1OC | – | RECIST v1.1 | human RET-altered solid tumours | 12 75 mg tablets, phase I | – | objective response rate | 17%
O=C(O)CCCC(=O)O | – | binding, equilibrium dialysis LC-MS | – | 5 µM, thermostabilized A2AR-BRIL construct | baseline: no-protein control, direction not given | z-scored log2 fold change | -0.286
CC(C)C[C@H](NC(=O)C[C@H](O)[C@H](CC(C)C)NC(=O)[C@H](Cc1c[nH]cn1)NC(=O)CNC(=O)[C@@H](NC(=O)[C@H](C)NC(=O)[C@H](Cc1c[nH]c2ccccc12)NC(=O)[C@H](CCC(N)=O)NC(=O)[C@@H](Cc1ccccc1)NC(=O)COCCOCCNC(=O)CCC(C(=O)O)N1CCN(CC(=O)O)CCN(CC(=O)O)CCN(CC(=O)O)CC1)C(C)C)C(N)=O (stereo partly drawn) [lutetium-177 labelled] | – | – | BALB/c nu/nu mice, lung | intravenous, 750 pmol, 1 h, with: PA 300 µg | – | tissue uptake | 0.5 ± 0.4 %ID/g
O=C1O[C@H]([C@@H](O)CO)C(O)=C1O | – | DPPH radical | – | 300 µg/mL | – | radical scavenging | 98.07 ± 0.39%
CC(=O)N[C@@H](C)C(=O)O | – | binding, equilibrium dialysis LC-MS | – | 5 µM, thermostabilized A2AR-BRIL construct | baseline: no-protein control, direction not given | z-scored log2 fold change | -0.378
Cc1noc(C)c1-c1cc(C(O)(c2ccccn2)c2ccccn2)c2nc(C3CC3)[nH]c2c1 | – | item: HEXIM1 expression | human patients, peripheral blood | dose not given, day 15, 360 h, with: enzalutamide 3 mg | – | maximum induction | 6%
CC(C(=O)O)C(=O)O | – | binding, equilibrium dialysis LC-MS | – | 5 µM, thermostabilized A2AR-BRIL construct | baseline: no-protein control, direction not given | z-scored log2 fold change | -0.0624
O=P(O)(O)C(Cl)(Cl)P(=O)(O)O | – | immunostaining | mouse, sham-operated, hippocampal fissure | dose not given | baseline: day 1 over day 7 | Iba1-positive area difference | -0.203%
CCN1CCN(Cc2ccc(Nc3ncc(F)c(-c4cc(F)c5nc6n(c5c4)[C@H](C)CCC6)n3)nc2)CC1 | – | – | human advanced solid tumours | 500 mg, phase Ia monotherapy RECIST 1.1 | – | objective response rate | 16.7%
C[C@H](NC(=O)c1c(C(F)F)nn(C)c1Oc1cccc(C(F)(F)F)c1)c1ccc(C(=O)O)cc1 | – | – | human, advanced tumours | 250 mg, irRECIST | – | objective response rate | 0%
C[C@H](Oc1ccc(Br)cc1-c1ccon1)C(=O)O | – | first response peak | human, tibialis anterior muscle | 400 mg, 15 Hz, single ascending dose | – | difference from placebo | 5.47%
O=C(c1ccc(OCCN2CCCCC2)cc1)c1c(-c2ccc(O)cc2)sc2cc(O)ccc12 | – | – | male ICR-CD1 mice | icv, 100 µg/animal, with: acetic acid 1% | – | writhing count | 41 and 39 and 66 and 54 and 59
N#Cc1ccc2c(c1)[C@H]1CCCN(C(=O)c3ccc4[nH]cnc4c3)[C@H]1C2 | – | item: systolic blood pressure | human | 240 mg once daily, day 28, adjusted mean | baseline: placebo | change from baseline | 0.4 mmHg
CN(C)C(=O)Oc1cccc([N+](C)(C)C)c1 | – | neuromuscular block reversal | rat | dose not given, 12 (unit not given), with: cisatracurium | baseline: T1 twitch | train-of-four ratio | 89
c1ccc(-c2n[nH]cc2-c2ccnc3ccccc23)nc1 | – | kinase binding, competitor, MIB/MS competition, item: CKA2 | Candida albicans cell lysate | 1 µM | baseline: DMSO | log2 fold change | 1.14
CC1(C)CCC(c2ccc(Cl)cc2)=C(CN2CCN(c3ccc(C(=O)NS(=O)(=O)c4ccc(N[C@H](CCN5CCOCC5)CSc5ccccc5)c(S(=O)(=O)C(F)(F)F)c4)cc3)CC2)C1 | – | cell killing | primary canine neoplastic B cells, dog 28 | 24 h | – | EC50 | 0.398 µM
N=C(N)NCCC[C@H](NC(=O)[C@H](CCCNC(=N)N)NC(=O)[C@H](CCCCN)NC(=O)[C@H](CCC(N)=O)NC(=O)[C@H](CCCCN)NC(=O)[C@H](Cc1ccc(O)cc1)NC(=O)[C@@H](N)CCCCN)C(=O)N[C@@H](CO)C(=O)N[C@@H](Cc1ccc(O)cc1)C(=O)N[C@@H](CCCCN)C(=O)O | – | air evaporative stimulus | dentin hypersensitivity patients | 5 µg/tooth single, day 22 | baseline: baseline, direction not given | median Schiff sensitivity score change | -0.5
CO[C@H]1CC[C@H](N2C(=O)CNc3ncc(-c4ccc(C(C)(C)O)nc4)nc32)CC1 | – | flow cytometry | stimulated B cells, human, blood | 45 mg single dose, 1.5 h, mean | baseline: baseline | pS6RP change from baseline | -72.1%
Cn1cc([C@H]2C[C@H]3CSC(N)=N[C@@]3(c3ccc(F)cc3F)CO2)cn1 | – | item: Aβx-40 | wild-type mouse, brain | subcutaneous, 3 mg/kg, 1 h | – | brain Aβ40 level | 2.46 ng/g
Oc1ccc(Br)cc1C=NCCN1CCOCC1 | – | nitric oxide scavenging | – | 40 µM | – | inhibition | 10.7%
CC[C@@H]1[C@H](F)C(=O)N[C@@H]1COc1nccc2cc(C(N)=O)c(OC)cc12 | IRAK1 (Homo sapiens, UniProt P51617) | ATP-site probe binding, ActivX profiling | THP-1 cell lysate | 0.2 mM, Lys2 site | – | inhibition | 2.2%
O=c1ccn([C@H]2C[C@H](O)[C@@H](COP(=O)(O)OP(=O)(O)OP(=O)(O)O)O2)c(=O)[nH]1 | – | binding, equilibrium dialysis LC-MS | – | 5 µM, thermostabilized A2AR-BRIL construct | baseline: no-protein control, direction not given | z-scored log2 fold change | -6.64
CC(C)NCC(O)c1ccc(O)c(O)c1 (stereo not drawn) | – | – | ventricular cardiomyocytes, C57BL/6 mouse | dose not given, 0.164 s | – | sarcomere length | 1.53 µm
OCc1ccc(O)cc1 | – | ABTS radical | – | 300 µg/mL | – | radical scavenging | 62.51 ± 0.27%
NC(=O)c1cnc2[nH]ccc2c1N[C@@H]1[C@@H]2CC3C[C@H]1C[C@@](O)(C3)C2 | – | flow cytometry, item: CD4+ effector memory T cells | Japanese healthy subjects, peripheral blood | oral, 100 mg twice daily, day 7 | – | change from baseline | 0.13%
Nc1nc2c(ncn2[C@H]2C[C@H](O)[C@@H](CO)O2)c(=O)[nH]1 | – | binding, equilibrium dialysis LC-MS | – | 5 µM, thermostabilized A2AR-BRIL construct | baseline: no-protein control, direction not given | z-scored log2 fold change | 0.56
